Published values from different studies.
Parts stem from different laboratories: compare values within a part only. Positions count from the first letter of the parent shown.

Set 1 — technique: DHFR PCA, deep sequencing; medium: yeast; with: (+)-ABA 0 µM; relative to: wild-type fitted maximum; direction: higher = stronger binding; quantity: relative binding score
Target: ABI1, truncated, D143A, DHFR fusion (Arabidopsis thaliana)
Setting: methotrexate growth selection, single substitutions
Starting sequence: PYL1, truncated, DHFR fusion (Arabidopsis thaliana); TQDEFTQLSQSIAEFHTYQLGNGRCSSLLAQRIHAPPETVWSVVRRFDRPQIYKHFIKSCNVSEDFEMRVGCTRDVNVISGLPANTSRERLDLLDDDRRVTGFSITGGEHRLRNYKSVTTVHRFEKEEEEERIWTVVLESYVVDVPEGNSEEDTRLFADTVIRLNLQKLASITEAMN
G148P: 1.23%
L112S: -2.86%
Y141E: -8.09%
A30I: 7.79%
D92N: 2.08%
N85Q: 54.4%
I52H: 8.52%
A158L: 43.2%
R132G: 51.6%
E130A: 34.5%

Set 2 — technique: RNA Bind-n-Seq; molecule type: RNA; medium: in vitro; tested at: 200 nM; setting: whole 134-nt RNA, ends assumed; with: 150 mM LiCl; relative to: input library; direction: higher = stronger binding; quantity: log2 enrichment; all molecules: 7-deaza-guanosine replaces G
Target: Ras GTPase-activating protein-binding protein 1, full length (G3BP1, Homo sapiens, UniProt Q13283)
Chain of UniProt Q13283 (whole entry, looked up): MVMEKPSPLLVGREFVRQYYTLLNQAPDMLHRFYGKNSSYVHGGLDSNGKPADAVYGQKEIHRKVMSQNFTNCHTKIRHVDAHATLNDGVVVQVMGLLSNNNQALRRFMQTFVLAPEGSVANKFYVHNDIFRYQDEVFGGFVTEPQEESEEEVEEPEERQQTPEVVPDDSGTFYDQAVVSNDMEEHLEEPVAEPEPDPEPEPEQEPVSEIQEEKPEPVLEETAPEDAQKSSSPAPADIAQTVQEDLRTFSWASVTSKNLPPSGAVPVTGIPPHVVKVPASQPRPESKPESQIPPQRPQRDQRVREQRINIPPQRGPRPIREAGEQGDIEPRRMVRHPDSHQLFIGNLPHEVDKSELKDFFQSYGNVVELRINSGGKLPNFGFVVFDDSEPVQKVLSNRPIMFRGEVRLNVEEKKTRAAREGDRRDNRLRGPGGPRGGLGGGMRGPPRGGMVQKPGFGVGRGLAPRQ
Shared flanks, not repeated: GGGAGUUCUACAGUCCGACGAUC … UGGAAUUCUCGGGUGUCAAGG
CCUGUGCUACACAUCGUAUGUACCGAAUCGGGGUUUUUUUGGUUUUUUUGGGUUUUUUUGGAAAGUAUUAUGUUACGCCGUUCGGAUCUG: 1.29
UUGUGAGCUGCAAGCUAGGCUGCAGGCCCAGGAAGAACAGCAUCAGGAAGUCCAGAAGGCAAAAGAAGCAGACAUAGAGAAGCUGAACCA: -2.16
CAAGUCCUGUGCUACACAUCGUAUGUACCGAAUCGGGUGGGUUUUUUUGGGUGGGAAAGUAUUAUGUUACGCCGUUCGGAUCUGCACUUC: 0.567
CUCAAGUCCUGUGCUACACAUCGUAUGUACCGAAUCGGGCCGGCCGGCCGGGGAAAGUAUUAUGUUACGCCGUUCGGAUCUGCACUUCCA: 0.649
CCUGUGCUACACAUCGUAUGUACCGAAUCAAAUUUUUUUAAAUUUUUAAACCCCCCCAAAAAAGUAUUAUGUUACGCCGUUCGGAUCUGC: 1.47
UUGGGUUCAAUAUACGGAGAGUGCCCUGUGCCAAAGCCACGAGUUGAUCGUCCAAGAAAAGUUCCUGUGAUACAAGAGGAGAGGGCAAUG: -1.48
UCCUCAAGUCCUGUGCUACACAUCGUAUGUACCGAAUCGGGUGGUGGUGGGGAAAGUAUUAUGUUACGCCGUUCGGAUCUGCACUUCCAG: 0.426
UCCUGUGCUACACAUCGUAUGUACCGAAUCGUGUGUGUGUGUGUGUGUGUGUGUGUGUGAAAGUAUUAUGUUACGCCGUUCGGAUCUGCA: -0.485
AGUCCUGUGCUACACAUCGUAUGUACCGAAUCAAACCCCCCCAAAUUUAAACCCAAAAAAGUAUUAUGUUACGCCGUUCGGAUCUGCACU: 1.45

Set 3 — technique: aptamer microarray, sandwich; molecule type: DNA with 2'F-ANA; medium: in vitro; tested at: 200 nM; with: Cy3 exosite-II aptamer, 400 nM; direction: higher = stronger binding; quantity: mean fluorescence intensity; strand: GGTTGGTGTGGTTGG
Target: Prothrombin, mature alpha-thrombin (F2, Homo sapiens, UniProt P00734)
Setting: whole 15-mer aptamer, many near background
2'F-ANA at 2 3 4 5 6 9 13: 54.4 a.u.
2'F-ANA at 1 2 4 5 6 8 10 11 13 15: 56.4 a.u.
2'F-ANA at 2 6 8 9: 370 a.u.
2'F-ANA at 2 3 4 5 6 7 9 10 11 13 14: 139 a.u.
2'F-ANA at 4 7 11 12 15: 504 a.u.
2'F-ANA at 3 6 7 8 12 13: 1210 a.u.
2'F-ANA at 3 4 7 9 11 15: 740 a.u.
2'F-ANA at 1 5 9 10 13 14 15: 47.7 a.u.
2'F-ANA at 2 3 4 5 6 11 14 15: 86.7 a.u.
2'F-ANA at 1 2 6 8 10 11 12 15: 63.8 a.u.
2'F-ANA at 4 5 12 15: 153 a.u.
2'F-ANA at 5 6 9 10 11 12: 77.8 a.u.

Mixed results
PhoQ, residues 284 288 289 292 302 303 SSLVEF — fold induction (PhoP, residues 12 14 15 18 19 LHHSG (Escherichia coli, UniProt P23836); Sort-seq, measured: YFP reporter; E. coli; PhoQ-PhoP variant library, with: 10 µM Mg2+; relative to: high Mg2+ state, higher = stronger signaling): 27.4

Excerpt of the above (set 1):
L112S: -2.86%
I52H: 8.52%
